Results collected from several papers.
Lines come from different studies, so protocols differ.

| SMILES | assay | test system | conditions | scale | plasma concentration |
| --- | --- | --- | --- | --- | --- |
| O=C1CCc2ccc(OCCCCN3CCN(c4cccc(Cl)c4Cl)CC3)cc2N1 |  | patients, plasma, steady state | oral or long-acting depot injection, dose not given, CYP2D6 pPM, median |  | 167 ng/mL |
| O=C(O)/C=C/c1ccc(O[C@@H]2O[C@H](C(=O)O)[C@@H](O)[C@H](O)[C@H]2O)c(O)c1 |  | human plasma | mean |  | 388 nM |
| C[C@@H]1CCO[C@H]2Cn3cc(C(=O)NCc4ccc(F)cc4F)c(=O)c(O)c3C(=O)N12 | population PK, post-hoc | infants aged ≥1 months, 3 to <6 kg, plasma | oral, 4.8 mg granules, 24 h, steady state, geometric mean |  | 370 ng/mL |
| O=C(O)c1cc(O)ccc1O |  | human plasma | mean, both sexes |  | 5080 nM |
| O=C(Nc1cnccc1Cl)N1CCN(Cc2ccc3c(c2)OC(F)(F)O3)CC1 |  | human, plasma | 2.5 mg, 24 h post dose day 1 |  | not detected |
| C[C@H](CCC(=O)NCC(=O)O)[C@H]1CC[C@H]2[C@@H]3[C@H](O)C[C@@H]4C[C@H](O)CC[C@]4(C)[C@H]3CC[C@]12C |  | women, C/C genotype, plasma | dose not given, geometric mean |  | 339 ng/mL |
| COc1ccc(C=CC(=O)O)cc1O[C@@H]1O[C@H](C(=O)O)[C@@H](O)[C@H](O)[C@H]1O |  | human plasma | mean |  | 4060 nM |
| C[C@H](CCC(=O)NCC(=O)O)[C@H]1CC[C@H]2[C@@H]3CC[C@@H]4C[C@H](O)CC[C@]4(C)[C@H]3C[C@H](O)[C@]12C |  | women, C/C genotype, plasma | dose not given, geometric mean |  | 105 ng/mL |
| O=C(O)[C@H](c1ccccc1Cl)N1CCc2sccc2C1 |  | cat, plasma | dose not given, day 10, added: clopidogrel plus omeprazole | baseline: clopidogrel alone | decreased |
| O=C(O)c1ccc(O)cc1O |  | human plasma | mean, both sexes |  | 13600 nM |
| COC(=O)C(c1ccccc1Cl)N1CCC(SCC(=O)c2cccc(OC)c2)C(=CC(=O)O)C1 (stereo not shown) |  | cat, plasma | dose not given, day 5, added: clopidogrel plus omeprazole | baseline: clopidogrel alone | no effect |
| CC(C)C[C@H](NC(=O)[C@@H](Cc1c[nH]c2ccccc12)NC(=O)[C@H](Cc1ccc(O)cc1)NC(=O)[C@H](CO)NC(=O)[C@H](Cc1c[nH]c2ccccc12)NC(=O)[C@H](Cc1c[nH]cn1)NC(=O)[C@@H]1CCC(=O)N1)C(=O)N[C@@H](CCCNC(=N)N)C(=O)N1CCC[C@H]1C(=O)NCC(N)=O |  | Chinese girls, precocious puberty, plasma | intramuscular, 22.5 mg, 4320 h, pre-dose second injection, mean |  | 0.626 ng/mL |
| O=C(O)/C=C/c1cccc(O)c1 |  | human plasma | mean |  | 1830 nM |
| COc1ccccc1OCC(O)CN1CCN(CC(=O)Nc2c(C)cccc2C)CC1 (stereo not shown) |  | human, plasma | oral, 12 mg/kg/day every 12 h, 2 h post-dose |  | 573 ng/mL |
| CS(=O)(=O)n1cc2c(n1)CN([C@H]1CO[C@H](c3cc(F)ccc3F)[C@@H](N)C1)C2 |  | healthy Japanese men, plasma | oral, 10 mg, 168 h, fed, single dose |  | 9.16 nM |
| CCn1c(C(=O)N(C2CC2)C2CC2)cc2c3c(ncn3C)c(Nc3cc(C)n(C)n3)nc21 |  | cancer patients | oral, 200 mg single dose, day 1, 0.5 h |  | 325 ng/mL |

Repeated from above:
| SMILES | assay | test system | conditions | scale | plasma concentration |
| --- | --- | --- | --- | --- | --- |
| CC(C)C[C@H](NC(=O)[C@@H](Cc1c[nH]c2ccccc12)NC(=O)[C@H](Cc1ccc(O)cc1)NC(=O)[C@H](CO)NC(=O)[C@H](Cc1c[nH]c2ccccc12)NC(=O)[C@H](Cc1c[nH]cn1)NC(=O)[C@@H]1CCC(=O)N1)C(=O)N[C@@H](CCCNC(=N)N)C(=O)N1CCC[C@H]1C(=O)NCC(N)=O |  | Chinese girls, precocious puberty, plasma | intramuscular, 22.5 mg, 4320 h, pre-dose second injection, mean |  | 0.626 ng/mL |
